{"data": "Published values from different studies", "note": "Parts stem from different laboratories: compare values within a part only."}
{"data": "Series 1", "target": "RNA binding protein fox-1 homolog 2, RRM domain, GST-SBP tag (RBFOX2, Homo sapiens, UniProt O43251-10, residues 100-194)", "method": "RNA Bind-n-Seq", "form": "RNA", "matrix": "in vitro", "concentration": "365 nM", "notes": "natural RNA segment, single round, ends assumed", "reference": "no-protein control", "direction": "higher = stronger binding", "constant ends, left off below": "GGGAGUUCUACAGUCCGACGAUC … UGGAAUUCUCGGGUGCCAA", "Target sequence (chain)": "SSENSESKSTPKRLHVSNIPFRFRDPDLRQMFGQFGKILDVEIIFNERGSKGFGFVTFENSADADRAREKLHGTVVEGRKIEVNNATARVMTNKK"}
{"Sequence": "GCCAAGCUGGUGUCUCUAGGAGGGCCCACACAGGCACCCUGGAUCCCCCAGAGAGUAGAUUGGUGUGCUCAGGCCGCAGGCUGACUCAGAGGUAGGGCAGUGGGCUCUGC", "RBNS enrichment (R)": 0.562}
{"Sequence": "AAAGCUGUUUCUUACAGAUGAAGUGCUUUCUUUGAAAGGUGGUUAUUUAGGUUUUAGAUGUUUAAUAGACACAGCACAUUUGCUCUAUUAACUCAGAGGCUCACUACAGA", "RBNS enrichment (R)": 0.751}
{"Sequence": "UUUUUUUUUUGUUUGACCAAAGUCAGUGCUGCACAUGACGCAGUGGGUUUUAGGUGUCUCUCUUUGUGUUUUCUGUGGUUUGUGAUGCACGUGCGCAGGAAGGGCUCCUC", "RBNS enrichment (R)": 5.66}
{"Sequence": "GACAGCUGGUCACACAAGGAACUCUUGAAGGCCACAUGUGAAAACCUGUCACUUGCACAGAGGCCAGUCCCACUAAGGUGACCAGAGUGGGCUCCAAGCACAAACUGCCA", "RBNS enrichment (R)": 0.255}
{"Sequence": "GUCAGUAUUCUGUAAAGUUCCCCUGGCCUAAAUGAUUACUUGCUCUGGGCAAGUGGAUAUUUAUUAGGCUAUUUCAAAGCCACAGCAUAAGAAUGUCAGCCUAGCCACAG", "RBNS enrichment (R)": 0.544}
{"Sequence": "GUCCCUGUGUUUGAGCCUCCAGGGAGAAGGGUUUGGGCUGCAUUCUUCUUAUCCCCAUGCACAGAAACGCUCAGGGUCCCCACGUGCCUGUUGUCCUCCCCUCUAGUCCU", "RBNS enrichment (R)": 1.05}
{"Sequence": "GAGGGUCAGGGAAGAAACCCACUCUUGCUCUACGAGGAGCAAGUGCCUGCCCCCUCCCAGCAGCCAGCCCUGCCAAAGUUGCAUUAUCUUUGGCCAAGGCUGGGCCUGAC", "RBNS enrichment (R)": 1.33}
{"Sequence": "UUGGUCACAAAUGCUGUUCCCUCUUAGCCUCAUUCUGUGCAACCAAGUGCAUAUAAGAUGCCCUGAAAAGAGUAACAAAGUAUGCUUUGCCUGUUUCCACUUACCAGGAA", "RBNS enrichment (R)": 0.308}
{"Sequence": "GGAAGGCUCCUGGAGGGCAGCCCUACCUCUCCCAUGCCCUUUGCCCUCCUCCCUCGCCUCCAGUGGAGGCUGAGCUGACCCUGGGCUGCUGGAGGCCAGACUGGGCUGUA", "RBNS enrichment (R)": 0.405}
{"Sequence": "ACUUCUUAUUUCUCGUCCUGUCUCUUUGCAAAGUAUGGGCUUUUUUGUUUUUGUUUUUUAAGGGAAACGAAAUGGAAUUCGAAGGGACCUUUUCACUAACCCCACUUCUG", "RBNS enrichment (R)": 0.43}
{"Sequence": "GUCUAGUGCCCAGCUGCUGACAAUAAAAGCUCCAACUCUUUUAGAGAUCAGUGGAAUUUAGAAGCAUCUUACAGGUAUCAAGGAAUUGAGCUUCUAGAGGGAUGGUUUGG", "RBNS enrichment (R)": 0.589}
{"Sequence": "GUAGGGAGACAUUAAACCCACACCAAAUCAUGAGGGGCUGAGGACCCCCAAUCUUCUUCUCUAGGUCGCCAAUCCCACAGGCUGUACAGCUCAGUUCCCUAUGUUUAUGC", "RBNS enrichment (R)": 1.75}
{"data": "Series 2", "target": "Sal-like protein 4, full length isoform A (SALL4, Homo sapiens, UniProt Q9UJQ4, residues 1-1053)", "method": "universal PBM", "form": "double-stranded DNA, one strand shown", "matrix": "in vitro", "concentration": "600 nM", "notes": "8-mer, flanks averaged, mean of replicates", "direction": "higher = stronger binding", "UniProt Q9UJQ4, sequence (whole entry, looked up)": "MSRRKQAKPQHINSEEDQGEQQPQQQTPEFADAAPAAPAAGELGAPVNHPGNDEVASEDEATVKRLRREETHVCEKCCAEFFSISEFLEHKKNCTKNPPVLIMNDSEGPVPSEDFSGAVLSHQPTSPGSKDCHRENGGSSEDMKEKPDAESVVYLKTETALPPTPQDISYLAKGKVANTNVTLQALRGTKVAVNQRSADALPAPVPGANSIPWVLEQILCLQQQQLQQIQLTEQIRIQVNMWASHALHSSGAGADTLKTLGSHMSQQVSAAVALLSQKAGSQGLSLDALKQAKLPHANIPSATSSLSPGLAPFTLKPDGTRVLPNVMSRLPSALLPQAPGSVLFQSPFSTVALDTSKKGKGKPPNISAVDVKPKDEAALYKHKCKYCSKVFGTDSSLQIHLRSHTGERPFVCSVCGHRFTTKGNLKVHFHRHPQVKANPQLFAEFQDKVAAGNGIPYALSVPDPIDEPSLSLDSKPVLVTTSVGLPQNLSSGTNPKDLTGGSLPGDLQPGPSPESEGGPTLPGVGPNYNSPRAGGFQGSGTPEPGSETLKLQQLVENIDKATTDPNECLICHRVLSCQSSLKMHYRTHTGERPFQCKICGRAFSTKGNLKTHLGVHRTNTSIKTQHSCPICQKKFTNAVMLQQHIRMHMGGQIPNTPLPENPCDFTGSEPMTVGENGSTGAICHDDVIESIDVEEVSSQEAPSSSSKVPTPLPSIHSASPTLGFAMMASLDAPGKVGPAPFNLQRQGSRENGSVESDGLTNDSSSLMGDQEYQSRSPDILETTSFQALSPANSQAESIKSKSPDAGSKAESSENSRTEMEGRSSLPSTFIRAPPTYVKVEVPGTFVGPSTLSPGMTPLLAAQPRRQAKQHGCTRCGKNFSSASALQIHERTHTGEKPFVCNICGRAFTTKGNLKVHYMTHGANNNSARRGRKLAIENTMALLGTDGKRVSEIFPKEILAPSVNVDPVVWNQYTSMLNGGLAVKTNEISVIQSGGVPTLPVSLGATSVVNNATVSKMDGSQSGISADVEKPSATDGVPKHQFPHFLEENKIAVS"}
{"Sequence": "TCTGGTAA", "E-score": 0.0641}
{"Sequence": "CCCGAAGA", "E-score": -0.175}
{"Sequence": "CGTGAGGC", "E-score": -0.249}
{"Sequence": "GACGTCGC", "E-score": -0.352}
{"Sequence": "GATCGCAA", "E-score": 0.0159}
{"Sequence": "CCATCGAG", "E-score": -0.0828}
{"Sequence": "AATAGTAT", "E-score": 0.315}
{"Sequence": "GCAGTACC", "E-score": -0.0772}
{"Sequence": "CATGCGCA", "E-score": 0.025}
{"Sequence": "CCAAGGAC", "E-score": -0.131}
{"Sequence": "ACGCCTCA", "E-score": -0.0765}
{"Sequence": "CCTATGAA", "E-score": 0.129}
{"Sequence": "AGGAAAAG", "E-score": 0.196}
{"Sequence": "CCCTAGGC", "E-score": -0.234}
{"Sequence": "ACAGTCGC", "E-score": -0.176}
{"Sequence": "ACTCCCCC", "E-score": -0.216}
{"Sequence": "TAGTCACA", "E-score": 0.0701}
{"Sequence": "ACCCGCGT", "E-score": -0.294}
{"Sequence": "CTAGATGA", "E-score": 0.0462}
{"Sequence": "GGACTAGA", "E-score": -0.0837}
{"data": "Series 3", "target": "Histone acetyltransferase KAT6A, winged helix 1, GST fusion (KAT6A, Homo sapiens, UniProt Q92794, residues 1-85)", "method": "protein binding microarray", "form": "double-stranded DNA, one strand shown", "matrix": "in vitro", "concentration": "not given", "notes": "8-mer, flanks averaged, mean of 2 arrays, mostly near background", "reference": "not given", "direction": "higher = stronger binding", "Target sequence (chain)": "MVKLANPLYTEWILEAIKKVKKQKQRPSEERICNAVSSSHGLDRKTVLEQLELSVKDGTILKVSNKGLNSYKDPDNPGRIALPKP"}
{"Sequence": "CGACCAGC", "E-score": 0.119}
{"Sequence": "AACTCTAA", "E-score": -0.16}
{"Sequence": "ATTTCCAG", "E-score": -0.0894}
{"Sequence": "AATCGCGA", "E-score": 0.145}
{"Sequence": "GTGACAAA", "E-score": -0.139}
{"Sequence": "CGGTTTAC", "E-score": 0.194}
{"Sequence": "CGGAGTGC", "E-score": 0.173}
{"Sequence": "CGGGGGTA", "E-score": 0.184}
{"Sequence": "CGTGGTTA", "E-score": -0.0571}
{"Sequence": "GAAACCTC", "E-score": -0.122}
{"Sequence": "AATTATCG", "E-score": -0.0464}
{"Sequence": "AACCAACG", "E-score": -0.137}
{"Sequence": "CGCCTGAC", "E-score": 0.163}
{"Sequence": "CGTCCATA", "E-score": -0.0574}
{"Sequence": "AACGATTG", "E-score": -0.106}
{"Sequence": "ACCCAACG", "E-score": -0.194}
{"Sequence": "GATTACCC", "E-score": -0.0269}
{"Sequence": "CCTCGGTC", "E-score": -0.117}
{"Sequence": "GTAGGCCA", "E-score": -0.131}
{"Sequence": "TCTCGAGA", "E-score": -0.347}
{"Sequence": "AACCATTG", "E-score": -0.037}
{"Sequence": "AATGACAT", "E-score": -0.118}
{"Sequence": "CTGAATAA", "E-score": -0.147}
{"Sequence": "GCAACTTA", "E-score": -0.102}
{"data": "Series 4", "target": "Interferon regulatory factor 7, full length, phosphomimetic (IRF7, Homo sapiens, UniProt Q92985, residues 1-503, S101K/S471D/S472D/S475D/S476D/S477D/S483D/S484D/S487D)", "method": "protein-binding microarray", "form": "double-stranded DNA, one strand shown", "matrix": "in vitro", "concentration": "250 nM", "notes": "60-bp whole probe", "together with": "salmon DNA 0.4 mg/ml", "reference": "random background probes", "direction": "higher = stronger binding", "constant ends, left off below": "GCCTAGCAC … GTCTTGATTCGCTTGACGCTGCTG", "Target sequence (chain)": "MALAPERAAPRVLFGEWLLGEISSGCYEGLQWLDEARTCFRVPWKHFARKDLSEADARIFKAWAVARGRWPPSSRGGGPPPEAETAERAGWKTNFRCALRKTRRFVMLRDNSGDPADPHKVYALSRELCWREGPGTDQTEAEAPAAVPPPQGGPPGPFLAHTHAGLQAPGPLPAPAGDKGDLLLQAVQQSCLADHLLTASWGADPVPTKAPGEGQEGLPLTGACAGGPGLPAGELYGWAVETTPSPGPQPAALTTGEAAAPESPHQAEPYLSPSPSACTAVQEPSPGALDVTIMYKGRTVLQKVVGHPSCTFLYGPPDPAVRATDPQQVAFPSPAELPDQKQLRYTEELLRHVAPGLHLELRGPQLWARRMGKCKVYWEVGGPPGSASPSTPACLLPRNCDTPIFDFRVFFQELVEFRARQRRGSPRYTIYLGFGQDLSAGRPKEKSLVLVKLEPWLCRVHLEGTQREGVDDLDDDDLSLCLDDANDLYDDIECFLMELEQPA"}
{"Sequence": "TTAGGACTGGACTTTCGGTCAGTGCTA", "log fluorescence": "-0.426 z-score"}
{"Sequence": "ATTGCTTCCTCTTTCACTGCGTGCTAG", "log fluorescence": "1.25 z-score"}
{"Sequence": "TTAGGTATCCTTGTCCTTTAGTGCTAG", "log fluorescence": "0.158 z-score"}
{"Sequence": "TTAGTACTGGGGACTGGGTTAGTGCTA", "log fluorescence": "0.101 z-score"}
{"Sequence": "TTAGATCTCAGTTCCGATTAGTGCTAG", "log fluorescence": "1.21 z-score"}
{"Sequence": "GACGGTCTGGACACTGGGGACGTGCTA", "log fluorescence": "-0.753 z-score"}
{"Sequence": "GACGGTATCCTTCTCCAGACGTGCTAG", "log fluorescence": "0.0296 z-score"}
{"Sequence": "TTCGGTCTCGGACTGGGTTAGTGCTAG", "log fluorescence": "0.299 z-score"}
{"Sequence": "GGGTCTTGCAGTATGGAAAGGTGCTAG", "log fluorescence": "0.0787 z-score"}
{"Sequence": "CTCTACATGTGTTTAAAAAGGTGCTAG", "log fluorescence": "0.0359 z-score"}
{"Sequence": "AGATTTATCAAATGTGGGATTGTGCTA", "log fluorescence": "-0.133 z-score"}
{"Sequence": "ATAGATTTCAGTTCCGATTAGTGCTAG", "log fluorescence": "1.6 z-score"}
{"Sequence": "TTAGGCCTGGACTATCGGTTAGTGCTA", "log fluorescence": "-0.573 z-score"}
{"Sequence": "TTAGGACAGGGACTGGGTTAGTGCTAG", "log fluorescence": "-0.0612 z-score"}
{"Sequence": "CTTTAACTCATTCTCCACTTGTGCTAG", "log fluorescence": "1.02 z-score"}
{"Sequence": "GACGATTTTGGGTATCGAGACGTGCTA", "log fluorescence": "0.0386 z-score"}
{"Sequence": "TCAACTATTGCTTCCTCACTGTGCTAG", "log fluorescence": "0.6 z-score"}
{"Sequence": "TTAGGTTTCAGTCTCGGTTAGTGCTAG", "log fluorescence": "2.92 z-score"}
{"Sequence": "TTAGATCTCCTTTTCCTTTAGTGCTAG", "log fluorescence": "1.03 z-score"}
{"Sequence": "TTAGGTTTCGGGTATCGGTAAGTGCTA", "log fluorescence": "7.77 z-score"}
{"Sequence": "ATAGGACTGGACACTGGGTTAGTGCTA", "log fluorescence": "-0.377 z-score"}
{"Sequence": "TCAGCTATACCACTCTTACTGTGCTAG", "log fluorescence": "0.0284 z-score"}
{"Sequence": "GACGGTTTCGGTCTTGGGACGTGCTAG", "log fluorescence": "7.9 z-score"}
{"note": "Repeated from above (series 4):"}
{"Sequence": "TTAGATCTCCTTTTCCTTTAGTGCTAG", "log fluorescence": "1.03 z-score"}
{"Sequence": "TTAGATCTCAGTTCCGATTAGTGCTAG", "log fluorescence": "1.21 z-score"}
{"Sequence": "CTTTAACTCATTCTCCACTTGTGCTAG", "log fluorescence": "1.02 z-score"}
{"Sequence": "TCAGCTATACCACTCTTACTGTGCTAG", "log fluorescence": "0.0284 z-score"}
{"Sequence": "GACGGTTTCGGTCTTGGGACGTGCTAG", "log fluorescence": "7.9 z-score"}
{"Sequence": "TCAACTATTGCTTCCTCACTGTGCTAG", "log fluorescence": "0.6 z-score"}
{"Sequence": "AGATTTATCAAATGTGGGATTGTGCTA", "log fluorescence": "-0.133 z-score"}
{"Sequence": "TTAGTACTGGGGACTGGGTTAGTGCTA", "log fluorescence": "0.101 z-score"}
{"Sequence": "GACGGTATCCTTCTCCAGACGTGCTAG", "log fluorescence": "0.0296 z-score"}
{"Sequence": "TTCGGTCTCGGACTGGGTTAGTGCTAG", "log fluorescence": "0.299 z-score"}
{"Sequence": "TTAGGACTGGACTTTCGGTCAGTGCTA", "log fluorescence": "-0.426 z-score"}
